Results collected from several papers.
Each numbered part is a random draw from the data of one study; scales do not carry over between parts. Positions count from the first letter of the parent shown.

Set 1
Target: ABI1, truncated, D143A, DHFR fusion (Arabidopsis thaliana)
Method: DHFR PCA, deep sequencing
Sample: yeast
Setting: methotrexate growth selection, single substitutions
Added: (+)-ABA 0.032 µM
Baseline: wild-type fitted maximum
Direction: higher = stronger binding
Starting sequence: PYL1, truncated, DHFR fusion (Arabidopsis thaliana); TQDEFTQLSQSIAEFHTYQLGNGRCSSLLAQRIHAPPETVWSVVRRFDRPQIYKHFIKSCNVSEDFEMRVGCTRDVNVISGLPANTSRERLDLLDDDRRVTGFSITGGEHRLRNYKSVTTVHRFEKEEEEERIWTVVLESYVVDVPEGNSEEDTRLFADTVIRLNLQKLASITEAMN; partner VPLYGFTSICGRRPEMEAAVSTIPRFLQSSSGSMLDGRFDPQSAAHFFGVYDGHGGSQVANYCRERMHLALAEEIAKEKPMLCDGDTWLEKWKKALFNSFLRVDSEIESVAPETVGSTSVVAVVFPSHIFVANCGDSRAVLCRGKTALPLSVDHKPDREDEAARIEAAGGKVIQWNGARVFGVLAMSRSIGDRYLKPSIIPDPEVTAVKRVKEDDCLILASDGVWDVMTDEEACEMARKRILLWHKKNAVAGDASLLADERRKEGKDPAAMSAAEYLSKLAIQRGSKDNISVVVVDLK
| Substitution | relative binding score |
| --- | --- |
| K54P | -7.95% |
| T154Y | -17.5% |
| V44T | -8.14% |
| V100P | -2.89% |
| R49A | 26.1% |
| N61R | 47.6% |
| T120H | -5.93% |
| I172F | -7.83% |
| N149E | 28.5% |
| T39E | 9.45% |
| E147S | 4.49% |
| M176S | 4.26% |
| R74V | -3.31% |
| V161R | 6.16% |
| E131L | 35.2% |
| E89W | 1.72% |
| Q2L | 60.3% |
| R113D | -2.36% |

Set 2
Target: Sal-like protein 4, full length isoform B (SALL4, Homo sapiens, UniProt Q9UJQ4-2, residues 1-616)
Method: universal PBM
Molecule type: double-stranded DNA, one strand shown
Sample: in vitro
Tested at: not given
Setting: 8-mer, flanks averaged, mean of replicates
Direction: higher = stronger binding
| Strand | E-score |
| --- | --- |
| AAAAGAAA | 0.255 |
| ATCGTCTC | 0.0421 |
| ATGTACGG | 0.0673 |
| AGTTAAAC | 0.09 |
| GCATTACC | -0.0235 |
| GCTCCTCA | -0.31 |
| CGGAAGCC | -0.269 |
| CGGAACAG | -0.177 |
| CTGAGCTA | -0.245 |
| AACAACGC | 0.115 |
| ACGGCGCC | -0.269 |
| AAAACCAC | 0.124 |
| GTCGTTAA | 0.144 |
| AAGAATAT | 0.285 |
| CGCTAGTC | -0.226 |
| GCGAGGCC | -0.345 |
| CTGCTGCC | -0.233 |
| CTAGTAGC | -0.124 |
| ACCCATCT | 0.18 |
| CAGTTGTC | -0.0292 |
| AGCTTCAA | 0.176 |
| AATTTCAC | 0.289 |
| ATACTTTG | 0.25 |
| CTAGTAGA | 0.134 |
| GACTGGCA | -0.28 |

Set 3
Target: FOSL1, bZIP domain (human)
Method: DHFR protein complementation
Sample: yeast
Setting: single substitutions, most at no-binding floor
Baseline: wild-type JUN-FOS pair
Direction: higher = stronger binding
Starting sequence: JUN, bZIP domain (human); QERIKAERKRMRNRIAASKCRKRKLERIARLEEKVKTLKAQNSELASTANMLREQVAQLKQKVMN; partner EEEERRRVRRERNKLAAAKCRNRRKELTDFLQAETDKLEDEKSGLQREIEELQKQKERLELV
| Substitution | binding fitness [natural log] |
| --- | --- |
| L52Y | -1.34 |
| V56P | -1.4 |
| E44D | -0.554 |
| V35L | -0.429 |
| V56T | -1.16 |
| K34D | -0.906 |
| A57V | -0.688 |
| A49N | -1.45 |
| T48Q | -0.266 |
| S43H | -0.398 |
| S47D | -0.265 |
| V35K | -0.862 |
| A57H | -0.488 |
| K39F | -1.29 |
| M51I | -0.315 |
| N42S | -1.2 |

Set 4
Target: CCND2, cyclin fold, Cln2 fusion (human)
Method: yeast growth competition, sequencing
Sample: yeast
Setting: weak parent motif
Baseline: not given
Direction: higher = stronger binding
Starting sequence: E2F2 docking peptide (human); LPAKRKLDLEGIG; partner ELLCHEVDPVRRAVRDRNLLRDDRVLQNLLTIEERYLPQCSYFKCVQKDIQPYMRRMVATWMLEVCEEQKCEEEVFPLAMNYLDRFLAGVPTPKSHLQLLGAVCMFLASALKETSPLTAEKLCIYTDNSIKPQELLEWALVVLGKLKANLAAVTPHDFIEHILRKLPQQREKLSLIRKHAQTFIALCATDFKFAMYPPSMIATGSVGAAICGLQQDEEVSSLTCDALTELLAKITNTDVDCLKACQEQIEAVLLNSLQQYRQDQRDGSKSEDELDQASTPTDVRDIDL
| Substitution | normalised enrichment score |
| --- | --- |
| LPAKKKLDLEGIG [R5K] | 0.104 |
| LPAKRKLDLEGIA [G13A] | 0.699 |
| LPAKRALDLEGIG [K6A] | 0.248 |
| LPAKRKLALEGIG [D8A] | -0.127 |
| LPAKAKADLEGIG [R5A L7A] | 0.218 |
| LPAKRKLDLAGIG [E10A] | 0.424 |
| APAKRKLDLEGIG [L1A] | 0.495 |
| LPAKRKLDAEGIG [L9A] | 0.0134 |
| LPAKKKLDFEGIG [R5K L9F] | 0.497 |
